Assay results from different studies.
Lines come from different studies, so protocols differ. Values joined by “and” are separate records of one study, mostly repeats; a detail may differ.
Organism: SARS-CoV-2

The IC50 of `Cc1c(-c2ccccc2)oc2c(C(=O)OCCN3CCCCC3)cccc2c1=O` is reported as greater than 10 µM (viral replication; Vero E6; inactive set pIC50 4).
`CCCCCCC(C)(C)c1cc(O)c2c(c1)OC(C)(C)C1CCC(=O)CC21` (centres unmarked) gave an EC50 of greater than 25.1 µM (viral replication, high-content imaging screen; cell-based).
`CCC1CCCCN1CCCNC(=O)c1sc2nc(C)cc(C)c2c1-n1cccc1` (centres unmarked) has an AC50 of 12.6 µM (cytopathic effect, cell-based CPE; USA_WA1/2020; round 1, 5-point dilution).
The viral titre of `Cc1nn(-c2ccc(Cl)cc2)c2c1C(c1ccc(Br)cc1)C(C#N)=C(N)O2` (centres unmarked) is reported as 948000 IU/mL (Vero; 1 µM).
For `Cc1ccc(Nc2nccc(N(C)c3ccc4c(C)n(C)nc4c3)n2)cc1S(N)(=O)=O`, “viral replication inhibition” read “inactive” (Vero E6; concentration not given, NYC laboratory).
With `Cc1ccc2nc(C3CCCN(Cc4cccc(-c5cccnc5)c4)C3)[nH]c(=O)c2c1` (centres unmarked) the efficacy was 58.4% (cytopathic effect; USA_WA1/2020; retest, 8-point, duplicates).
`Cc1nccn1CC1CCc2c(c3ccccc3n2C)C1=O` (centres unmarked) gave an IC50 of greater than 10 µM (viral replication, anti-nucleoprotein immunostaining; Vero E6).
`CN(C)CC/C=C1/c2ccccc2Sc2ccc(Cl)cc21` has an EC50 of 7.08 µM (viral replication, GFP plate reader screen; cell-based).
For `Cc1noc2c1-c1ccccc1C(c1ccc(Cl)cc1)=N[C@H]2CC(N)=O`, “viral replication inhibition” read “inactive” (concentration not given, Paris laboratory).
With `O=C(O[C@@H]1Cc2c(O)cc(O)cc2O[C@@H]1c1cc(O)c(O)c(O)c1)c1cc(O)c(O)c(O)c1` the CPE inhibition was 90% (viral replication; Vero E6; 50 µM; reference: mean of replicates).
The EC50 of `CCOC(=O)Oc1c(OC)cc(C(=O)O[C@@H]2C[C@@H]3CN4CCc5c([nH]c6cc(OC)ccc56)[C@H]4C[C@@H]3[C@H](C(=O)OC)[C@H]2OC)cc1OC` is reported as greater than 100 µM (viral replication, GFP plate reader screen; cell-based).
`Cc1nn(-c2ccc(Cl)cc2)c2c1C(c1ccc(Cl)c(Cl)c1)C(C#N)=C(N)O2` (centres unmarked) — result for “viral titre log reduction”: 0.142 log10 (Vero C1008; 10 µM; reference: positive control).
The IC50 of `CN(C)CCC(c1ccc(Cl)cc1)c1ccccn1` (centres unmarked) is reported as greater than 10 µM (viral replication, anti-nucleoprotein immunostaining; Vero E6).
For `C=C[C@@H]1C[C@]1(NC(=O)[C@@H]1C[C@@H]2CN1C(=O)[C@H](C(C)(C)C)NC(=O)O[C@@H]1C[C@H]1CCCCCc1nc3ccc(OC)cc3nc1O2)C(=O)NS(=O)(=O)C1CC1.O`, the combination index was 0.6 (Vero E6; with: remdesivir).
The AC50 of `CC1CCN(CCCNC(=O)c2cc(Sc3ccc(F)cc3)nc3ccccc23)CC1` is reported as 14.1 µM (cytopathic effect; USA_WA1/2020).
`NLWNTFTRL` — result for “antigen-specific T cell frequency”: 0.00266% (peptide, T cells from acute-phase patients; dose not given).
With `Cc1nc(Nc2ncc(C(=O)Nc3c(C)cccc3Cl)s2)cc(N2CCN(CCO)CC2)n1` the IC50 was greater than 2 µM (viral replication; Huh-7).
For `CCOc1ccc2cc(C(=O)Nc3nc4ccccc4[nH]3)[nH]c2c1`, the IC50 was 0.71 µM and < 1 µM (cell fusion; Vero E6).
`Cc1nn(-c2ccc(Cl)cc2)c2c1C(c1ccc(-c3ccccc3)cc1)C(C#N)=C(N)O2` (centres unmarked): “viral titre log reduction” 0.304 log10 (Vero C1008; 10 µM; reference: positive control).
The IC50 of `C=CC(=O)Nc1cccc(Nc2nc(Nc3ccc(NC4CN(CCF)C4)cc3OC)ncc2C(F)(F)F)c1` is reported as greater than 2 µM (viral replication; Huh-7).
`CN1CCN(CC/C=C2/c3ccccc3Sc3ccc(S(=O)(=O)N(C)C)cc32)CC1` gave an EC50 of 5.75 µM (viral replication, high-content imaging screen; cell-based).
With `CC(C)N(CCO/N=C1\CCCCC\C1=C\c1ccccc1)C(C)C` the inhibition was 59.6% (viral replication; Vero C1008, USA-WA1/2020; 2.5 µM, reconfirmation).
`CN1[C@@H]2CC[C@H]1C[C@@H](OC1c3ccccc3CCc3ccccc31)C2` gave an EC50 of 7.41 µM (viral replication, GFP plate reader screen; cell-based).
The mean inhibition of `O=C(/C=C/c1ccc(O)c(O)c1/C=C/c1ccc(O)c(O)c1)O[C@H](Cc1ccc(O)c(O)c1)C(=O)O` is reported as 0% (cytopathic effect; Vero E6; 12.5 µM, replicate run).
`OCCN1CCN(CC/C=C2/c3ccccc3Sc3ccc(Cl)cc32)CC1` has an EC50 of 7.24 µM (viral replication, GFP plate reader screen; BetaCov/Belgium/GHB-03021/2020; cell-based).
With `COc1cc2c(cc1OCC1CC1)NC(=O)C21CCN(c2cc(NC3CC3)ncn2)CC1` the AC50 was 25.1 µM (cytopathic effect, cell-based CPE; USA_WA1/2020).
For `NCCCC(N)(C(=O)O)C(F)F` (centres unmarked), the IC50 was greater than 2 µM (viral replication; Huh-7).
The maximum response of `CC1CCCCN1CCCNC(=O)c1cc(Sc2ccc(Cl)cc2)nc2ccccc12` (centres unmarked) is reported as 91.7% (cytopathic effect; USA_WA1/2020; first round 5-point).
The CPE inhibition of `CC(C)=CCc1c(O)ccc(C(=O)/C=C/c2ccc(O)cc2)c1O` is reported as 0% (viral replication; Vero E6; 6.25 µM; reference: mean of replicates).
For `CC(C)N1CCN(c2ccc(OCC3COC(Cn4cncn4)(c4ccc(Cl)cc4Cl)O3)cc2)CC1` (centres unmarked), the EC50 was 16.6 µM (viral replication, GFP plate reader screen; cell-based).
`COc1ccc(C[C@@H]2c3cc(Oc4cc(C[C@@H]5c6cc(O)c(OC)cc6CCN5C)ccc4O)c(OC)cc3CCN2C)cc1` gave a CPE inhibition of 80% (viral replication; Vero E6; 100 µM; reference: mean of replicates).
`COc1cc2c(cc1OC)C(=O)C(CC1CCN(Cc3ccccc3)CC1)C2` (centres unmarked) has an IC50 of greater than 10 µM (viral replication; Vero E6; inactive set pIC50 4).
`CCNC/C=C\CNCCCCNCCCCNC/C=C\CNCC` gave an inhibition of 50 to 60% (viral replication; Vero C1008, USA-WA1/2020; concentration not given, 24 h).
`COc1ccc(CCN(C)CCCC(C#N)(c2ccc(OC)c(OC)c2)C(C)C)cc1OC` (centres unmarked): “viral replication inhibition” “inactive” (concentration not given, Paris laboratory).
For `CC(=O)O[C@H]1Cc2ccccc2N(C(N)=O)c2ccccc21`, the IC50 was greater than 2 µM (viral replication; Huh-7).
`Clc1ccccc1C1(c2ccnc(-c3ccccc3)n2)CCNCC1` gave an AC50 of 14.1 µM (cytopathic effect, cell-based CPE; USA_WA1/2020; round 1, 5-point dilution).
`COC1CC2CCC(C)C(O)(O2)C(=O)C(=O)N2CCCCC2C(=O)OC(C(C)CC2CCC(OCCOCc3cn(CCOCCOCCOCCOCCOCCOCCOCCOCCC(=O)NCCCCn4nc(-c5ccc6oc(N)nc6c5)c5c(N)ncnc54)nn3)C(OC)C2)CC(=O)C(C)C=C(C)C(O)C(OC)C(=O)C(C)CC(C)C=CC=CC=C1C` (centres unmarked): “viral replication inhibition” “inactive” (concentration not given, Paris laboratory).
For `CC(C)(C)[C@H](NC(=O)C(F)(F)F)C(=O)N1C[C@H]2[C@@H]([C@H]1C(=O)N[C@H](C#N)C[C@@H]1CCNC1=O)C2(C)C`, the inhibition was 88.8% (viral replication, infectious virus; Vero E6; 0.11 µM).
With `COc1ccc2c(Sc3ccc(Cl)cc3)c(C(=O)NCCCN3CCCCC3)[nH]c2c1` the AC50 was 14.1 µM (cytopathic effect, cell-based CPE; USA_WA1/2020).
`CCOC(=O)Nc1ccc(NCc2ccc(F)cc2)nc1N` has an EC50 of greater than 100 µM (viral replication, GFP plate reader screen; cell-based).
`Cc1ccc(NS(=O)(=O)c2cccc(C(=O)NC3CCN(c4ncnc5[nH]cnc45)CC3)c2)cc1` gave a relative infection of 15.7% (A549-ACE2, Wuhan-Hu-1; 200 µM; reference: untreated).
`Cc1c(Cl)cccc1-c1ccc(CNCCSc2nnnn2-c2ccccc2)o1` has an efficacy of 43% (cytopathic effect; USA_WA1/2020; round 1, 5-point).
With `Cc1nn(-c2ccc(Cl)cc2)c2c1C(c1ccc(F)cc1F)C(C#N)=C(N)O2` (centres unmarked) the viral titre was 544000 IU/mL (Vero; 10 µM).
For `CC(C)CC(NC(=O)OCc1ccccc1)C(=O)NC(C(=O)NCC(=O)C=[N+]=[N-])C(C)C` (centres unmarked), the EC90 was 0.107 µM (viral replication; Huh-7-ACE2, USA-WA1/2020).

Some of these lines once more:
With `Cc1nc(Nc2ncc(C(=O)Nc3c(C)cccc3Cl)s2)cc(N2CCN(CCO)CC2)n1` the IC50 was greater than 2 µM (viral replication; Huh-7).
For `CCOc1ccc2cc(C(=O)Nc3nc4ccccc4[nH]3)[nH]c2c1`, the IC50 was 0.71 µM and < 1 µM (cell fusion; Vero E6).
`CN1[C@@H]2CC[C@H]1C[C@@H](OC1c3ccccc3CCc3ccccc31)C2` gave an EC50 of 7.41 µM (viral replication, GFP plate reader screen; cell-based).
`Clc1ccccc1C1(c2ccnc(-c3ccccc3)n2)CCNCC1` gave an AC50 of 14.1 µM (cytopathic effect, cell-based CPE; USA_WA1/2020; round 1, 5-point dilution).
